Experimental data collected from several papers.
Numbers after ± are the reported error.

CC(C)c1cnc(-c2cc(Cl)ccc2F)cc1Nc1ccncc1C(=O)NC(CO)CO  patients with ALT increase (patients, phase I monotherapy; oral, dose not given, grade 4): 0%
CC(C)(Sc1cc[n+]([O-])cc1-c1ccc(C#N)c2ccccc12)C(=O)OC1OC(C(=O)O)C(O)C(O)C1O (stereo not shown)  Cmax increase (adult men, plasma; oral, 15 mg verinurad, moderate renal impairment; reference: normal renal function): 56%
CC(=O)N[C@H](CCNC(=O)c1cc(NC(=O)c2cc(NC(=O)c3cc(NC(=O)c4nccn4C)cn3C)cn2C)cn1C)C(=O)Nc1cn(C)c(C(=O)Nc2cc(C(=O)Nc3cc(C(=O)Nc4cc(C(=O)NCCCN(C)CCCN[14C](=O)c5cccc([14C](=O)O)c5)n(C)c4)n(C)c3)n(C)c2)n1  tissue concentration ratio (BALB/c male mice, bone marrow; intraperitoneal, 15 nmol per animal, 24 h; reference: bone marrow over blood): > 10 fold
CC[C@H](C)[C@H](NC(=O)[C@H](Cc1ccccc1)NC(=O)[C@H](CCC(=O)O)NC(=O)[C@H](CCCCN)NC(=O)[C@H](C)NC(=O)[C@H](C)NC(=O)[C@H](CCC(N)=O)NC(=O)CNC(=O)[C@H](CCC(=O)O)NC(=O)[C@H](CC(C)C)NC(=O)[C@H](Cc1ccc(O)cc1)NC(=O)[C@H](CO)NC(=O)[C@H](CO)NC(=O)[C@@H](NC(=O)[C@H](CC(=O)O)NC(=O)[C@H](CO)NC(=O)[C@@H](NC(=O)[C@H](Cc1ccccc1)NC(=O)[C@@H](NC(=O)CNC(=O)[C@H](CCC(=O)O)NC(=O)[C@H](C)NC(=O)[C@@H](N)Cc1c[nH]cn1)[C@@H](C)O)[C@@H](C)O)C(C)C)C(=O)N[C@@H](C)C(=O)N[C@@H](Cc1c[nH]c2ccccc12)C(=O)N[C@@H](CC(C)C)C(=O)N[C@H](C(=O)N[C@@H](CCCCN)C(=O)NCC(=O)N[C@@H](CCCNC(=N)N)C(N)=O)C(C)C  metabolic clearance rate (human type 2 diabetes, plasma; intravenous infusion, 1.2 pmol/kg/min, 60 to 360 min, with: GIP 4 pmol/kg/min): 10 ± 1 mL/min/kg
[2H]C([2H])([2H])C(c1cc2nnc(-c3cc(F)ccc3F)n2nc1OCc1ncnn1C)(C([2H])([2H])[2H])C([2H])([2H])[2H]  concentration (Wistar rat, plasma; oral, 1 mg/kg, 2 h): 191 ng/mL
Fc1ccc(NCc2cn(-c3ccccc3)nc2-c2ccc(OCc3ccccc3)cc2)cc1  ulcer severity index (rat, gastric mucosa; oral, 60 mg/kg, 17 h; reference: control score subtracted): 1.03 ± 0.13
C[Si]1(C[C@H](CN)CC(=O)O)CCCC1  concentration (male Sprague-Dawley rat, plasma; oral, 30 mg/kg, 1 h, single dose): 33 µM
CSCOC1C(=O)C2(C)C(OCSC)CC3OCC3(OC(C)=O)C2C(OC(=O)c2ccccc2)C2(O)CC(OC(=O)C(O)C(C=C(C)C)NC(=O)OC(C)(C)C)C(C)=C1C2(C)C (stereo not shown)  MRT(0-t) (female Sprague-Dawley rat, plasma; intravenous, 2 mg/kg): 2.8 h
CCCC(CCC)NC(=O)c1ccc(OC2OC(C(=O)O)C(O)C(O)C2O)c(OC)c1 (stereo not shown)  Tmax (male Sprague-Dawley rat, plasma; oral, 50 mg/kg of parent drug): 6 h
CC(C)[C@H](NC(=O)[C@@H]1CCCN1C(=O)[C@H](CCCNC(=N)N)NC(=O)[C@H](CS)NC(=O)[C@H](Cc1c[nH]c2ccccc12)NC(=O)[C@H](CCCNC(=N)N)NC(=O)[C@@H](Cc1ccccc1)NC(=O)[C@H](Cc1c[nH]cn1)NC(=O)[C@H](CCC(=O)O)NC(=O)[C@H](CS)NC(=O)[C@H](CS)NC(=O)CNC(=O)[C@@H]1CC(=O)N[C@@H](CCCNC(=N)N)C(=O)NCC(=O)N[C@@H](CC(=O)O)C(=O)N[C@H](Cc2ccc(O)cc2)C(=O)N1)C(N)=O [technetium-99m labelled]  tumour to tissue ratio (C57 mouse, female, B16/F1 melanoma; intravenous, 0.037 MBq, 24 h; reference: tumour over lung): 16.3
CC[N+]1(Cc2ccc3ccc(O)c(C#N)c3n2)CCCC1CNC(=O)c1cc(S(N)(=O)=O)ccc1OC (stereo not shown)  two-photon uncaging action cross-section (KMOPS buffer; pH 7.2, excitation at 740 nm): 0.26 GM
O=c1c2cc([N+](=O)[O-])ccc2n(CCBr)n1Cc1ccccc1  CC50 (resazurin; peritoneal macrophages, BALB/c mice; 48 h, 10% FBS): 3.8 ± 1.7 µM
N=C(N)NCCC[C@@H]1NC(=O)[C@H](Cc2c[nH]c3ccccc23)NC(=O)[C@@H](CC2CCCCC2)NC(=O)[C@@H]2CCCN2C(=O)[C@@H](NC(=O)CCc2ccccc2)CCCNC1=O  redistribution rate constant k21 (C57BL/6J mice, plasma; intraperitoneal, 1 mg/kg, two-compartment model): 2 h⁻¹
CCCCCCCCCCCCCCCC(=O)N[C@@H](CCCCN)C(=O)N[C@@H](CCCCN)C(=O)N[C@@H](CO)C(=O)N[C@@H](CCCNC(=N)N)C(=O)N[C@@H](C)C(=O)N[C@@H](CC(C)C)C(=O)N[C@@H](Cc1ccccc1)C(N)=O  prothrombin time (cynomolgus monkey, male; 10 mg/kg, day 1): 12.2 ± 0.6 s
N#CC1=C(N)n2c(nnc2-c2ccccc2)NC1c1ccc(Br)cc1 (stereo not shown)  ulcer number (rat male, stomach; oral, 10 mg/kg, 4 h): 0.3 ± 0.01
Cc1ccc(OCC(=O)O)cc1  AUC(0-last) (Sprague-Dawley rat, female, plasma; oral gavage, 30 mg/kg of parent drug): 25900 ± 6260 ng·h/mL
CCOc1ccc2cc(-c3nn(CC4CCNCC4)c4ncnc(N)c34)ccc2n1  plasma concentration (piglets, crossbred; oral, 10 mg/kg twice daily, 2 h after dose 9, 7 days post infection): 0.1 ± 0.1 µM
Cn1c(=O)oc2ccc(-c3ccc(CC(C#N)NC(=O)C4CNCCCO4)c(F)c3)cc21 (stereo not shown)  lymphadenopathy incidence (human; oral, 40 mg once daily, TEAE, multiple ascending dose): 0%
COCCOCCOCCOCCC(=O)NCc1cc(CNC(=O)CCOCCOCCOCCOC)cc(-c2cc3cc4nc(c(OC)c5[nH]c(cc6nc(cc2[nH]3)CC6(C)C)cc5-c2cc(CNC(=O)CCOCCOCCOCCOC)cc(CNC(=O)CCOCCOCCOCCOC)c2)CC4(C)C)c1  decrease of fluorescence quantum yield (PBS; reference: DMF): 20%
NC(=S)N/N=C/c1ccccn1  peak potential separation (cyclic voltammetry; anhydrous DMF; Cu2+ complex, glassy carbon electrode): 0.137 mV
CC[C@H](C)[C@@H]1NC(=O)[C@H](Cc2ccccc2)NC(=O)[C@@H](NC(=O)[C@H](CCCNC(=N)N)NC(=O)[C@H](Cc2ccccc2)NC(=O)[C@H](Cc2ccccc2)NC(=O)[C@H](CCCCN)NC(=O)[C@H](CO)NC(=O)[C@H](CC(C)C)NC(=O)[C@H](CCCNC(=N)N)NC(=O)[C@H](CCSC)NC(=O)[C@H](C)N)CCCCNC(=O)NCC[C@@H](C(=O)N[C@@H](CCCNC(=N)N)C(=O)N[C@@H](CCCCN)C(=O)N[C@@H](CCCCN)C(=O)O)NC(=O)[C@H](CC(C)C)NC1=O  helicity (circular dichroism; 20% TFE in PBS; 200 µM, pH 7.4, 25 °C): 10.6%
CC(C)[C@H](NC(=O)CNC(=O)[C@H](CCC(N)=O)NC(=O)[C@H](C)N)C(=O)O  clearance (LC-MS/MS; human, male, plasma; intravenous, 20 mg/kg three times daily, day 3, first dose, 10 min infusion, geometric mean): 583 mL/min/kg
CN[C@@H]1[C@H](O)[C@H](NC)[C@H]2O[C@]3(O)[C@H](O[C@@H]2[C@H]1O)O[C@H](C)C[C@@]3(O)CNCc1ccc(OC(F)(F)F)cc1  urinary excretion unchanged (rat, urine; intravenous, 10 mg/kg; reference: dose): 22%
CC[C@H](C)[C@H](NC(=O)[C@H](Cc1ccccc1)NC(=O)[C@H](CC(=O)O)NC(=O)[C@@H]1CCCNC(=O)NCCCC[C@H](NC(=O)[C@H](CC(C)C)NC(=O)[C@H](CCCNC(=N)N)NC(=O)[C@H](CCSC)NC(=O)[C@H](C)N)C(=O)N[C@@H](CCCCN)C(=O)N[C@@H](Cc2ccccc2)C(=O)N[C@@H](Cc2ccccc2)C(=O)N1)C(=O)N[C@@H](CC(C)C)C(=O)N[C@@H](CCC(N)=O)C(=O)N[C@@H](CCCNC(=N)N)C(=O)N[C@@H](CCCCN)C(=O)N[C@@H](CCCCN)C(=O)O  helicity (circular dichroism; 20% TFE in PBS; 200 µM, pH 7.4, 25 °C): 30.2%
[11CH3]c1ccc2nc(C3CCC3)n(-c3ccc4[nH]ncc4c3)c2n1  absorbed radiation dose (standard human adult, thyroid): 2.3 µSv/MBq
C[C@H]1Nc2nc(=O)c3[nH]ccc3n2Cc2ccc(Cl)cc21  exposure ratio (dog, both sexes, plasma; oral, 100 mg/kg/day; reference: dog over human 15 mg): 8.6
CN1CCC[C@]1(C)/C=C/S(=O)(=O)NC(=O)Nc1c2c(cc3c1CCC3)CCC2  accumulation ratio AUC(0-24) (human, plasma; oral, 50 mg twice daily, 14 days, multiple ascending dose; reference: day 14 over day 1): 1.5
NS(=O)(=O)c1ccc(N2N=C(C(F)(F)F)CC2c2ccc(F)cc2F)cc1 (stereo not shown)  Tlast (Beagle dog, both sexes, plasma; oral, 4 mg/kg, single dose, median): 192 h

Repeated from above:
CSCOC1C(=O)C2(C)C(OCSC)CC3OCC3(OC(C)=O)C2C(OC(=O)c2ccccc2)C2(O)CC(OC(=O)C(O)C(C=C(C)C)NC(=O)OC(C)(C)C)C(C)=C1C2(C)C (stereo not shown)  MRT(0-t) (female Sprague-Dawley rat, plasma; intravenous, 2 mg/kg): 2.8 h
CCCC(CCC)NC(=O)c1ccc(OC2OC(C(=O)O)C(O)C(O)C2O)c(OC)c1 (stereo not shown)  Tmax (male Sprague-Dawley rat, plasma; oral, 50 mg/kg of parent drug): 6 h
